Measured values collected from several papers.
Numbers after ± are the reported error.
Oprd1: Delta-type opioid receptor (Oprd1, Rattus norvegicus, UniProt P33533)
DRD2: D(2) dopamine receptor (DRD2, Homo sapiens, UniProt P14416)
DRD3: D(3) dopamine receptor (DRD3, Homo sapiens, UniProt P35462)
CNR1: Cannabinoid receptor 1 (CNR1, Homo sapiens, UniProt P21554)

SMILES = CC(C)C[C@H](NC(=O)[C@H](Cc1cccc2ccccc12)NC(=O)CNC(=O)[C@H](NC(=O)[C@@H](N)Cc1ccc(O)cc1)[C@H](C)O)C(=O)N[C@@H](CO)C(N)=O; tested on = Oprd1; assay = GTPγS binding, agonist, radiometric; conditions = cell membranes; endpoint = Emax; value = 144%
SMILES = CCN(Cc1ccccc1)C(=O)CCc1nc(CN2CCN(C(=O)Cc3ccc(OC)c(OC)c3)CC2)no1; tested on = SCN9A (Homo sapiens, UniProt Q15858); assay = sodium current, inhibitor, whole-cell patch clamp; test system = HEK293 stably expressing NaV1.7; conditions = 1 µM, at -10 mV; endpoint = current density; value = -74.6 ± 7.71 pA/pF
SMILES = CC[C@H](C)[C@H](NC(=O)[C@H](Cc1ccccc1)NC(=O)[C@@H]1CCCN1C(=O)[C@H](CCCCN)NC(=O)[C@H](CCCCN)NC(=O)[C@H](Cc1ccccc1)NC(=O)[C@H](Cc1ccccc1)NC(=O)[C@@H](C)NC(=O)[C@@H](N)Cc1ccc(O)cc1)C(=O)N[C@@H](CC(C)C)C(=O)O; tested on = DRD2; assay = GTPγS binding, agonist, radiometric; conditions = cell membranes; endpoint = Emax; value = 117%
SMILES = CN(C)CC1CCCCC1(O)c1cccc(O)c1 (stereo not shown); tested on = P-glycoprotein; test system = Caco-2 TC7; conditions = 10 µM, 3 h, pH 7.4, added: cyclosporin A 10 µM; endpoint = efflux ratio; value = 1.1
SMILES = O=C1C[C@H](c2nc(-c3ccc(F)c4cn[nH]c34)no2)CCCN1c1ccc(F)cc1 (racemic); tested on = CNR2 (Homo sapiens, UniProt P34972); assay = cAMP, agonist, luciferase; test system = CHO; endpoint = Emax; value = 97.8%
SMILES = CC(N)CCc1ccccc1Cl (racemic); tested on = DRD3; assay = agonist; scale = baseline: PD128907; endpoint = Emax; value = 57.3 ± 2.5%
SMILES = C[C@@H](NC(=O)[C@@H](CCC(N)=O)NC(=O)[C@@H](C)NC(=O)[C@@H](CCCCN)NC(=O)[C@@H](CCC(N)=O)NC(=O)[C@@H](C)NC(=O)[C@@H](CCCCN)NC(=O)[C@@H](CCC(N)=O)NC(=O)[C@@H](C)NC(=O)[C@@H](CCC(N)=O)NC(=O)[C@@H](CCCCN)NC(=O)[C@@H](C)NC(=O)[C@@H](CCC(N)=O)NC(=O)[C@@H](CCCCN)NC(=O)[C@@H](C)NC(=O)[C@@H](CCC(N)=O)NC(=O)[C@@H](C)NC(=O)[C@@H](CCCCN)NC(=O)[C@@H](CCC(N)=O)NC(=O)[C@@H](C)NC(=O)[C@@H](CCCCN)NC(=O)[C@@H](CO)NC(=O)[C@@H](Cc1ccc(O)cc1)NC(=O)CNC(=O)CNC(=O)CN)C(=O)N[C@H](CCCCN)C(=O)N[C@H](CCC(N)=O)C(=O)N[C@H](C)C(=O)N[C@H](CCCCN)C(=O)N[C@H](CCC(N)=O)C(=O)O; assay = binding, SPR two-state model; test system = rVλ6Wil fibrils; conditions = 300 nM, pH 7.4; endpoint = ka1; value = 550000 M⁻¹ s⁻¹
SMILES = O=C(c1ccc2c(c1)c1ccccc1n2CCN1CCCCC1)c1cccc2ccccc12; tested on = CNR1; assay = cAMP inhibition, agonist, BRET; test system = HEK293 expressing CNR1; conditions = added: forskolin; scale = baseline: forskolin alone; endpoint = Emax; value = 33.4%
SMILES = Cc1cc(O)cc(C)c1C[C@H](N)C(=O)N[C@@H](C(=O)NCC(=O)N[C@@H](Cc1ccc2ccccc2c1)C(=O)N[C@@H](CC(C)C)C(=O)N[C@@H](CO)C(N)=O)[C@H](C)O; tested on = Oprd1; assay = GTPγS binding, agonist, radiometric; conditions = cell membranes; endpoint = Emax; value = 164%
SMILES = CNC(C)CCc1ccccc1Cl (racemic); tested on = DRD3; assay = agonist; scale = baseline: PD128907; endpoint = Emax; value = 66.1 ± 6.5%
SMILES = CCCN(CCC)C1CCc2ccc(O)cc2C1 (racemic); tested on = DRD2; assay = cell-based; endpoint = Emax; value = 106%
SMILES = CCCC[C@H](NC(=O)[C@H](Cc1ccccc1)NC(=O)CNC(=O)[C@@H](C)NC(=O)[C@@H](N)Cc1ccc(O)cc1)C(=O)N1CCC[C@H]1C(=O)N[C@@H](CC(C)C)C(=O)N[C@@H](CO[C@@H]1O[C@H](CO)[C@@H](O)[C@H](O)[C@H]1O)C(=O)N[C@@H](Cc1c[nH]c2ccccc12)C(=O)NCc1cc(C(F)(F)F)cc(C(F)(F)F)c1; tested on = OPRM1 (Cavia porcellus, UniProt P97266); assay = smooth muscle contraction inhibition, agonist; test system = guinea pig ileum; scale = baseline: PL-017; endpoint = Emax; value = 93.7 ± 4.1%
SMILES = O=C(c1ccc2c(c1)c1ccccc1n2CC1CCOCC1)c1cccc2ccccc12; tested on = CNR1; assay = cAMP inhibition, agonist, BRET; test system = HEK293 expressing CNR1; conditions = added: forskolin; scale = baseline: forskolin alone; endpoint = Emax; value = 57.8%
SMILES = CC[C@H](C)[C@H](NC(=O)[C@@H]1CCCN1C(=O)[C@H](Cc1c[nH]cn1)NC(=O)[C@@H](NC(=O)[C@H](Cc1ccc(O)cc1)NC(=O)[C@@H](NC(=O)[C@H](CCCNC(=N)N)NC(=O)CNC)C(C)C)[C@@H](C)CC)C(=O)O; tested on = AGTR1 (Homo sapiens, UniProt P30556); assay = β-arrestin 2 recruitment, agonist; test system = U2OS cells; conditions = 90 min, 37 °C; endpoint = Emax; value = 31 ± 2%
SMILES = CC(=O)OCCCCCn1c2ccccc2c2cc(C(=O)c3cccc4ccccc34)ccc21; tested on = CNR1; assay = GTPγS binding, agonist; conditions = cell membranes; endpoint = Emax; value = 69.7%
SMILES = CCCCCCCCCCCCCCCCSCc1cc2cc(c1)CSC[C@H](N)C(=O)NCCCCCC(=O)N[C@@H](Cc1ccccc1)C(=O)N[C@@H](CC(C)C)C(=O)N[C@@H](Cc1ccccc1)C(=O)N[C@@H](CCCNC(=N)N)C(=O)N1[C@@H](C[C@@H]3CCCC[C@@H]31)C(=O)N[C@@H](CCCNC(=N)N)C(=O)N[C@@H](CC(N)=O)C(=O)NCCCCCC(=O)N[C@H](C(N)=O)CSC2; tested on = NMUR2 (Homo sapiens, UniProt Q9GZQ4); assay = calcium signalling, agonist; test system = HEK293 expressing receptor; conditions = 10 µM; scale = baseline: human NmU; endpoint = Emax; value = 118 ± 4.8%
SMILES = CC(C)(C)c1cc(C(C)(C)C)c(-n2cc(-c3cnc4ccccc4c3O)nn2)cc1O; tested on = CFTR (Homo sapiens, UniProt P13569); assay = inside-out patch clamp; conditions = 0.2 nM; endpoint = current increase; value = ~7%
SMILES = CN1CCCCC1Cn1c2ccccc2c2cc(C(=O)c3cccc4ccccc34)ccc21 (stereo not shown); tested on = CNR1; assay = GTPγS binding, agonist; conditions = cell membranes; endpoint = Emax; value = 171%
SMILES = CN[C@](C)(C[18F])C(=O)O; tested on = SK-OV-3 tumour model; test system = host not given, tumour; conditions = 1 h, tumour-bearing; endpoint = tracer uptake; value = 13 %ID/g
SMILES = COc1cc(C(=O)NCCOCCOCCOCCNC(=O)c2ccc([18F])nc2)ccc1NC(=O)C1NC(CC(C)(C)C)C(C#N)(c2ccc(Cl)cc2F)C1c1cccc(Cl)c1F (stereo not shown); tested on = SJSA-1 tumour model; test system = host not given, stomach; conditions = 2 h, tumour-bearing; endpoint = tracer uptake; value = 0.49 %ID/g
SMILES = CCCCCCn1c2ccccc2c2cc(C(=O)c3cccc4ccccc34)ccc21; tested on = CNR1; assay = cAMP inhibition, agonist, BRET; test system = HEK293 expressing CNR1; conditions = added: forskolin; scale = baseline: forskolin alone; endpoint = Emax; value = 33.4%
SMILES = C[C@H](NC(=O)[C@H](CCC(N)=O)NC(=O)[C@H](CCCCN)NC(=O)[C@H](C)NC(=O)[C@@H]1CCCN1C(=O)[C@H](C)NC(=O)[C@H](CCCCN)NC(=O)[C@H](CCC(N)=O)NC(=O)[C@H](C)NC(=O)[C@H](CCCCN)NC(=O)[C@H](CCC(N)=O)NC(=O)[C@@H]1CCCN1C(=O)[C@H](CCC(N)=O)NC(=O)[C@H](CCCCN)NC(=O)[C@H](C)NC(=O)[C@H](CCC(N)=O)NC(=O)[C@H](CCCCN)NC(=O)[C@H](C)NC(=O)[C@@H]1CCCN1C(=O)[C@H](C)NC(=O)[C@H](CCCCN)NC(=O)[C@H](CCC(N)=O)NC(=O)[C@H](C)NC(=O)[C@H](CCCCN)NC(=O)[C@H](CO)NC(=O)[C@H](Cc1ccc(O)cc1)NC(=O)CNC(=O)CNC(=O)CN)C(=O)N[C@@H](CCCCN)C(=O)N[C@@H](CCC(N)=O)C(=O)O; assay = binding, SPR two-state model; test system = rVλ6Wil fibrils; conditions = 300 nM, pH 7.4; endpoint = ka1; value = 120000 M⁻¹ s⁻¹

Some of these lines once more:
SMILES = CCCC[C@H](NC(=O)[C@H](Cc1ccccc1)NC(=O)CNC(=O)[C@@H](C)NC(=O)[C@@H](N)Cc1ccc(O)cc1)C(=O)N1CCC[C@H]1C(=O)N[C@@H](CC(C)C)C(=O)N[C@@H](CO[C@@H]1O[C@H](CO)[C@@H](O)[C@H](O)[C@H]1O)C(=O)N[C@@H](Cc1c[nH]c2ccccc12)C(=O)NCc1cc(C(F)(F)F)cc(C(F)(F)F)c1; tested on = OPRM1 (Cavia porcellus, UniProt P97266); assay = smooth muscle contraction inhibition, agonist; test system = guinea pig ileum; scale = baseline: PL-017; endpoint = Emax; value = 93.7 ± 4.1%
SMILES = CC(C)(C)c1cc(C(C)(C)C)c(-n2cc(-c3cnc4ccccc4c3O)nn2)cc1O; tested on = CFTR (Homo sapiens, UniProt P13569); assay = inside-out patch clamp; conditions = 0.2 nM; endpoint = current increase; value = ~7%
